{"data": "Measured values collected from several papers", "note": "Every numbered part comes from another study and shows a few of its results, in no order. Positions count from the first letter of the parent shown.", "UniProt Q96BR1, sequence (whole entry, looked up)": "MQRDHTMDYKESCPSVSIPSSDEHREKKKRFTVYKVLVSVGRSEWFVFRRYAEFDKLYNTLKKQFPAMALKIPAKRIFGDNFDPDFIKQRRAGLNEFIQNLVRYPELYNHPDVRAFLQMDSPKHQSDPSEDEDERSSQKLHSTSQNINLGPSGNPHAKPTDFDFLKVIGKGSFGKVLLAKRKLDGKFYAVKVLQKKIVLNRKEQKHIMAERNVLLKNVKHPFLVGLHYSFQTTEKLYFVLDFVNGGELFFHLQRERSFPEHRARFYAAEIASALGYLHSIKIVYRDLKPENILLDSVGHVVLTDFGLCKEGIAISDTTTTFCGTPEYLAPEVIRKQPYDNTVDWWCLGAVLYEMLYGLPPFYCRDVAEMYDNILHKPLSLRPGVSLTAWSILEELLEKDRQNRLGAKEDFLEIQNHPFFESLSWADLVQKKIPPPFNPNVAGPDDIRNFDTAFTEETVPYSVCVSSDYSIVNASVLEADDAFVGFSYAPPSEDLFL"}
{"data": "Set 1", "target": "RING finger protein unkempt homolog, zinc fingers 1-6, GST-SBP tag (UNK, Homo sapiens, UniProt Q9C0B0, residues 30-357)", "technique": "RNA Bind-n-Seq", "form": "RNA", "medium": "in vitro", "tested at": "not given", "setting": "RNA with constant flanks, ends assumed", "relative to": "input RNA pool", "reading": "higher = stronger binding", "UniProt Q9C0B0, sequence (30-357, looked up)": "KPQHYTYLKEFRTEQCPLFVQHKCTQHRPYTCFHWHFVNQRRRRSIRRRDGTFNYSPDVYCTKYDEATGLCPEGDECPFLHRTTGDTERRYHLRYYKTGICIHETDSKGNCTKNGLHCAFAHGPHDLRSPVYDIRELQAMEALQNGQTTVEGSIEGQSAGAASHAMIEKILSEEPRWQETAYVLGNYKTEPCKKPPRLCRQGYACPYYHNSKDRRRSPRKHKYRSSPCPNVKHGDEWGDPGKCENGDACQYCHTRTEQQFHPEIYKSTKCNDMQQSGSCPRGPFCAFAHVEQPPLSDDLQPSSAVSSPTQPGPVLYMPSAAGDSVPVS"}
{"Sequence": "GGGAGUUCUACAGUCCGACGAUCAUGAAGCCAUUAGACUAAUUGCUUGCCAUCAUGAGCAGAAGCAAACGUGACAACAAUUUUUACCGUGCCGAGAUUGGAGAUUCUACAUUCACAGUCCUAAAACGAUACCAGAAUUUAAAGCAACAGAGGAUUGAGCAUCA", "bound/input enrichment [ratio]": 0.248}
{"Sequence": "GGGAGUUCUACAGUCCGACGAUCCUGAAGCCAGCCAAUGUCUUCCUGGACAGCAAACACAAUGUCAAGCUGGGGGACUUUGGACCCGCCCGAAUAUUAAAUCACGACACGAGUUUUGCAAAAACGUUUGUUGGCACACCCUAUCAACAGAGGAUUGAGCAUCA", "bound/input enrichment [ratio]": 0.17}
{"Sequence": "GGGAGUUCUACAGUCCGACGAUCAGUCGAGGCGCAACAAGACCCAACGGGCCAAAUACGGGAAAUAAAAUAUGCCAGUUCAAACCCGUACUUCUGGGAGAGUCCGCUGUUGGCAAAUCAAGCCUAGUGCUUCGUUUUGUGAAACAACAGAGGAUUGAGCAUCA", "bound/input enrichment [ratio]": 0.164}
{"Sequence": "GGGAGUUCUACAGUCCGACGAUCCUAGAGGAUUACUACCAAAGUGGAAGAAUGCUUUUGCGAAUGUCUCAAGCUCUGGGUCGAACCGUUUUGGCUGGGCGUGAAAUGACUAGAUUGGCCGGUUUUACUGCUCGGAUUACAGAACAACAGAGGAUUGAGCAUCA", "bound/input enrichment [ratio]": 0.168}
{"Sequence": "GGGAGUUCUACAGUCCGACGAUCAUGUCACAGUGUUAGCACCCUGCAUGGAUGUGGUCAAAAUAUCAUUCAAGUUGUACUUCCCCGUUUUUAUCAUCAUACUACUAUGUCAUAUGAUUUUCAGACUAAUUUAACAUGAGAAAUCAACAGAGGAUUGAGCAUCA", "bound/input enrichment [ratio]": 0.303}
{"Sequence": "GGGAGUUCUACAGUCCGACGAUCGGUGGCUCUUCUCUGCUCAUCGAGGCAUUAUCUAACAGUAGCCACAAGUGCCAAGCAGACAUCCGACAUAUCCUGAAUAAGAAUGGAGGAGUGAUGGCUGUAGGAGCUCGUCACUCUUUUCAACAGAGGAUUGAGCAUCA", "bound/input enrichment [ratio]": 0.122}
{"Sequence": "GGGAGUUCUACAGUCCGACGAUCUGGAUGAAUUUUUAGUGAAAAAUGAUCCCUGCCGAGCACGAGGUAGAACUAACAUUGAACUCCGAGAGAAAUUCAUCCUACCAGAGGGAGCAUCCCAGGGAAUGACCCCCUUCCGCUCACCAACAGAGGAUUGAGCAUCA", "bound/input enrichment [ratio]": 0.257}
{"Sequence": "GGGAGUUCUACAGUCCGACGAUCUUCUCUCGAGUUGAAGAAGACUAUCUCUGGAGGAUAAAACAACUAGGAUCACACUCUCCAGCCGCUCUUCUGAAUACACUGUUCUACUUUAACACUAAGUAUUUUGGCCUGAAAACAGUGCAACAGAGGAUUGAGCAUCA", "bound/input enrichment [ratio]": 0.338}
{"data": "Set 2", "target": "FOSB, bZIP domain (human)", "technique": "DHFR protein complementation", "medium": "yeast", "setting": "single substitutions, most at no-binding floor", "relative to": "wild-type JUN-FOS pair", "reading": "higher = stronger binding", "starting sequence": "JUN, bZIP domain (human); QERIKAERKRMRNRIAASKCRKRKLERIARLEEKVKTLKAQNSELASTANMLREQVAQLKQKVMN; partner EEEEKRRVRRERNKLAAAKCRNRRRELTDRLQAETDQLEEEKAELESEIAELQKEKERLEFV"}
{"Substitution": "E33H", "binding fitness [natural log]": -0.287}
{"Substitution": "I28H", "binding fitness [natural log]": -0.117}
{"Substitution": "L52M", "binding fitness [natural log]": -0.322}
{"Substitution": "E44Y", "binding fitness [natural log]": -0.371}
{"Substitution": "S47V", "binding fitness [natural log]": 0.0736}
{"Substitution": "K39D", "binding fitness [natural log]": -0.988}
{"Substitution": "V35Q", "binding fitness [natural log]": -0.305}
{"Substitution": "A40S", "binding fitness [natural log]": -0.112}
{"data": "Set 3", "target": "Transcriptional repressor CTCF (CTCF, Homo sapiens, UniProt P49711, residues 1-727, full length assumed)", "technique": "protein-binding microarray", "form": "double-stranded DNA, one strand shown", "medium": "in vitro", "tested at": "not given", "setting": "k-mer, scored over probes, only values ≥0.25", "reading": "higher = stronger binding", "UniProt P49711, sequence (whole entry, looked up)": "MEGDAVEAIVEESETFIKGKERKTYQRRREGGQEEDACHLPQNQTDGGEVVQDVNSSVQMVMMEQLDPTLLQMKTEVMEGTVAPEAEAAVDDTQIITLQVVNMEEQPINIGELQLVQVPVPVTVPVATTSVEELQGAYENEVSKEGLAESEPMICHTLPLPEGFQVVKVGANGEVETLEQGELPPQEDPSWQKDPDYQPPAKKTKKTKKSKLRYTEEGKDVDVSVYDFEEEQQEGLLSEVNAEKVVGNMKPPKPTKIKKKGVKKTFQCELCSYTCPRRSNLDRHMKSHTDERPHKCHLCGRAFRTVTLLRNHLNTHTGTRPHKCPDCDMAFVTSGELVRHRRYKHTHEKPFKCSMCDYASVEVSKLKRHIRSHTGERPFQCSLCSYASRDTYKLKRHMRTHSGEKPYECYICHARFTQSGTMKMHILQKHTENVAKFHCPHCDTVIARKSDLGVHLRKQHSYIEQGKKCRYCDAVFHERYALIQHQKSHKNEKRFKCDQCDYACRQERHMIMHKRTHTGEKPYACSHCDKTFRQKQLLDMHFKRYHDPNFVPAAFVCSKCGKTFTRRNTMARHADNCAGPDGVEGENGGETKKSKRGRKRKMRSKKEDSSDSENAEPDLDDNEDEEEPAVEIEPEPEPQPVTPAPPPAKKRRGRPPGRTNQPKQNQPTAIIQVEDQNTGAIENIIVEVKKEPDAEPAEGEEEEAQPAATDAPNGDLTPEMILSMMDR"}
{"Sequence": "CCCTGGCG", "E-score": 0.28}
{"Sequence": "CCCCGCCC", "E-score": 0.323}
{"Sequence": "AATAGTAT", "E-score": 0.342}
{"Sequence": "AAAACTAC", "E-score": 0.264}
{"Sequence": "AAATAATA", "E-score": 0.335}
{"Sequence": "AATAATGG", "E-score": 0.254}
{"Sequence": "ATTTGTTC", "E-score": 0.332}
{"Sequence": "AGTTATTA", "E-score": 0.275}
{"data": "Mixed results"}
{"Compound": "O=C(O)c1ccc2c3c1cccc3c(=O)n1c3ccccc3nc21", "target": "Serine/threonine-protein kinase Sgk3 (SGK3, Homo sapiens, UniProt Q96BR1)", "assay": "enzyme activity, inhibitor", "conditions": "0.5 µM", "how to read": "relative to: control", "quantity": "remaining activity", "value": "103%"}
{"note": "A few entries again (set 1):"}
{"Sequence": "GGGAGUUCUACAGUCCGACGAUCAGUCGAGGCGCAACAAGACCCAACGGGCCAAAUACGGGAAAUAAAAUAUGCCAGUUCAAACCCGUACUUCUGGGAGAGUCCGCUGUUGGCAAAUCAAGCCUAGUGCUUCGUUUUGUGAAACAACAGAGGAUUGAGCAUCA", "bound/input enrichment [ratio]": 0.164}
{"Sequence": "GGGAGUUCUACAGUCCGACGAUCCUAGAGGAUUACUACCAAAGUGGAAGAAUGCUUUUGCGAAUGUCUCAAGCUCUGGGUCGAACCGUUUUGGCUGGGCGUGAAAUGACUAGAUUGGCCGGUUUUACUGCUCGGAUUACAGAACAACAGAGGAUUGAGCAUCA", "bound/input enrichment [ratio]": 0.168}
{"Sequence": "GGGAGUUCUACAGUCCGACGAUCAUGUCACAGUGUUAGCACCCUGCAUGGAUGUGGUCAAAAUAUCAUUCAAGUUGUACUUCCCCGUUUUUAUCAUCAUACUACUAUGUCAUAUGAUUUUCAGACUAAUUUAACAUGAGAAAUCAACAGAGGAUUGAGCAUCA", "bound/input enrichment [ratio]": 0.303}
{"Sequence": "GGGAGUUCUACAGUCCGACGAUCGGUGGCUCUUCUCUGCUCAUCGAGGCAUUAUCUAACAGUAGCCACAAGUGCCAAGCAGACAUCCGACAUAUCCUGAAUAAGAAUGGAGGAGUGAUGGCUGUAGGAGCUCGUCACUCUUUUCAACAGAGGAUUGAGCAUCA", "bound/input enrichment [ratio]": 0.122}
